# Experimental data gathered from unrelated publications.
# Parts stem from different laboratories: compare values within a part only. Several values in a cell are separate wells, animals, samples, runs or records.
# Sequence of UniProt P15056 (whole entry, unmodified, looked up): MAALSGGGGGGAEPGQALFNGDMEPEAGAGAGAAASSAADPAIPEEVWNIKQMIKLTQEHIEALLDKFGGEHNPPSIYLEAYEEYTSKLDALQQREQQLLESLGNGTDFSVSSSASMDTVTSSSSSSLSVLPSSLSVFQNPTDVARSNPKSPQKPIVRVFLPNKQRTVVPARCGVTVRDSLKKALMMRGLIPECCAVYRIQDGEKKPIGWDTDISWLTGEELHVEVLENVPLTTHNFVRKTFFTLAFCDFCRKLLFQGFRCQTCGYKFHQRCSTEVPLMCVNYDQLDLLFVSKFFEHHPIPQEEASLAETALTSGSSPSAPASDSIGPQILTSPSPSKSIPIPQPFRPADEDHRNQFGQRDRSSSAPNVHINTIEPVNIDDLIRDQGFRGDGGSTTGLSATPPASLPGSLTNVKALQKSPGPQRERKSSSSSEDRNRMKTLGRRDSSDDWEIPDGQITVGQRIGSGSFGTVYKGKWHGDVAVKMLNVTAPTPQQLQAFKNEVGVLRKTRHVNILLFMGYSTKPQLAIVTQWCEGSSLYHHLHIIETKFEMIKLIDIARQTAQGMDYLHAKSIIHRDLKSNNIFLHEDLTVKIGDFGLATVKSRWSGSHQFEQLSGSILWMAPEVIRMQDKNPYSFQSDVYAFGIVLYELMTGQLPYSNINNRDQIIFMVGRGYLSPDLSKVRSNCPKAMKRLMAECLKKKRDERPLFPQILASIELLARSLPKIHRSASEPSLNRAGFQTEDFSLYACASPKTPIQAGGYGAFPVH
# Sequence of UniProt Q9UBF8 (whole entry, looked up): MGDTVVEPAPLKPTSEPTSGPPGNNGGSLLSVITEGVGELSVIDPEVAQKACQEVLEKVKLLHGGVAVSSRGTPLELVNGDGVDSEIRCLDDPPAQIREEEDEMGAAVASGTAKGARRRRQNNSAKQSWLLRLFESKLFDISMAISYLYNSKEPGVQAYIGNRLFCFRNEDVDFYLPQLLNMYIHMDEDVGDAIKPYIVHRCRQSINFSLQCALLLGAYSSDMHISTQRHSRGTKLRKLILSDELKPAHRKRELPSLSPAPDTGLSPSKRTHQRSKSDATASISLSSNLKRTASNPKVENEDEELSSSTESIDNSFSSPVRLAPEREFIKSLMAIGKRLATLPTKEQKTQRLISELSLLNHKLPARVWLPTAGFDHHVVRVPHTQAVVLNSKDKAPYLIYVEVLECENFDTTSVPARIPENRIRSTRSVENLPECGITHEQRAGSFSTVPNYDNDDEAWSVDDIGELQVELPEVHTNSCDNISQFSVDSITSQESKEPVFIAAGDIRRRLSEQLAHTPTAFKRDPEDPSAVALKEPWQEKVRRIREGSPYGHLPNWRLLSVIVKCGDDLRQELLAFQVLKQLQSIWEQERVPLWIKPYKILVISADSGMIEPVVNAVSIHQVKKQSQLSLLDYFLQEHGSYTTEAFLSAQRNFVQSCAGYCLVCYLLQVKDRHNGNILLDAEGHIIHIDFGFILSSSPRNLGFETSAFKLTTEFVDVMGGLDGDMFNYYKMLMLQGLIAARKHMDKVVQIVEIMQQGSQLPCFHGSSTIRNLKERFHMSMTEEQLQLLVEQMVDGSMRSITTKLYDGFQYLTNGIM
# Sequence of UniProt Q5VT25 (whole entry, looked up): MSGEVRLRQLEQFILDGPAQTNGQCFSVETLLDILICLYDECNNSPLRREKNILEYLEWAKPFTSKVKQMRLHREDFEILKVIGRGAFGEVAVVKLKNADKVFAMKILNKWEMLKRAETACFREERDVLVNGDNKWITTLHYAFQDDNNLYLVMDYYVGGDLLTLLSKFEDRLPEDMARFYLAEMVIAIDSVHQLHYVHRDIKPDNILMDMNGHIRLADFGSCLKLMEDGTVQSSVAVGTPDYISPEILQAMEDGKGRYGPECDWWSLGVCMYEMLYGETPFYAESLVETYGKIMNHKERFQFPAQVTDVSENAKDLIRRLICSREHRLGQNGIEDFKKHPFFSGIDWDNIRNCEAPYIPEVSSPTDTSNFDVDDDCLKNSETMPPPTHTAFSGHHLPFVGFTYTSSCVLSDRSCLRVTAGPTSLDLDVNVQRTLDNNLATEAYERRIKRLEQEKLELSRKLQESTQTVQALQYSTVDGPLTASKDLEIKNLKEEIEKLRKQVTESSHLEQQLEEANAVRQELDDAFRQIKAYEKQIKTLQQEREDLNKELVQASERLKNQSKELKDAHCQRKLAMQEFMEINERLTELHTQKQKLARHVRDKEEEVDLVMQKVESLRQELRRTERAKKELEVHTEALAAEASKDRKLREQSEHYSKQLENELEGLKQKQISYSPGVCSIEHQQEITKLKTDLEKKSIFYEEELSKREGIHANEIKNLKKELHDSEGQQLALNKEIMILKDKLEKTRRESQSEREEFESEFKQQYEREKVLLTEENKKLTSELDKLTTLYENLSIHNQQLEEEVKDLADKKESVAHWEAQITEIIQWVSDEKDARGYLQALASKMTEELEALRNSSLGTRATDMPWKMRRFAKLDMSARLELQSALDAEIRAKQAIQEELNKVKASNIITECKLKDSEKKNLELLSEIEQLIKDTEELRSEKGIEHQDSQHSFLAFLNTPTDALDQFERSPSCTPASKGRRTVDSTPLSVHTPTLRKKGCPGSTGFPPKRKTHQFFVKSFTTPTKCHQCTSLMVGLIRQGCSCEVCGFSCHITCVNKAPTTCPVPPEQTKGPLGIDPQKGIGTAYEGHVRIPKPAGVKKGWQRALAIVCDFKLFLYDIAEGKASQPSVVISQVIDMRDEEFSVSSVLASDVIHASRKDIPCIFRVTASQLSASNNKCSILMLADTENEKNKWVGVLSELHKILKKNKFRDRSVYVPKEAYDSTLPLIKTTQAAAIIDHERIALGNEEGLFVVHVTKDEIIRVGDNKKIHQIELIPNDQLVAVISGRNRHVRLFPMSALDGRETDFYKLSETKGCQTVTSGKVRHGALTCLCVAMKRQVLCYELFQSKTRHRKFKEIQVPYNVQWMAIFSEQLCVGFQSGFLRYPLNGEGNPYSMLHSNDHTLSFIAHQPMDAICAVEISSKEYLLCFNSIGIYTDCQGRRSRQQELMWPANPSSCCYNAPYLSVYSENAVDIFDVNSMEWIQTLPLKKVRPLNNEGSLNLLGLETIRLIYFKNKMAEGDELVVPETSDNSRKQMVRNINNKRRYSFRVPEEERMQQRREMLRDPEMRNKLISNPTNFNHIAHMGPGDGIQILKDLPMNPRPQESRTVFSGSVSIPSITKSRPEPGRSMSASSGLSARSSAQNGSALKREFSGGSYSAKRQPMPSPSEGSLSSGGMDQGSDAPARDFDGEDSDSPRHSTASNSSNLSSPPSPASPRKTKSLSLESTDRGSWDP
# Sequence of UniProt O43318 (whole entry, looked up): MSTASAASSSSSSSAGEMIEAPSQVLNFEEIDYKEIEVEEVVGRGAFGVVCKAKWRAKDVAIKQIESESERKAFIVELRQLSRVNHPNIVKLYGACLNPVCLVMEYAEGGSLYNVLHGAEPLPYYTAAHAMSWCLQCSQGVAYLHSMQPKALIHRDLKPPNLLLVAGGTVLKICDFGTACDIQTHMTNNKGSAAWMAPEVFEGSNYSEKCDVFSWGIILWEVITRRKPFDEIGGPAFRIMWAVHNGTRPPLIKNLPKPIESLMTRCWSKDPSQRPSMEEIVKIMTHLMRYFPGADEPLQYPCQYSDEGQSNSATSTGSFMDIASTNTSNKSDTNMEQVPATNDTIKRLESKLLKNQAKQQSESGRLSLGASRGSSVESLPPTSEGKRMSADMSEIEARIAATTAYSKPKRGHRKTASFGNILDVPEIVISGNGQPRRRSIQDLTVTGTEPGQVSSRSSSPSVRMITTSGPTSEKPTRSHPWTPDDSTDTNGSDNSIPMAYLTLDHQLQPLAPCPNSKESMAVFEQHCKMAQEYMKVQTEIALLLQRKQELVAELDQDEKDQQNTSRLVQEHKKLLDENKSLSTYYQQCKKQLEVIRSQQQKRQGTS
# Sequence of UniProt P49840 (whole entry, looked up): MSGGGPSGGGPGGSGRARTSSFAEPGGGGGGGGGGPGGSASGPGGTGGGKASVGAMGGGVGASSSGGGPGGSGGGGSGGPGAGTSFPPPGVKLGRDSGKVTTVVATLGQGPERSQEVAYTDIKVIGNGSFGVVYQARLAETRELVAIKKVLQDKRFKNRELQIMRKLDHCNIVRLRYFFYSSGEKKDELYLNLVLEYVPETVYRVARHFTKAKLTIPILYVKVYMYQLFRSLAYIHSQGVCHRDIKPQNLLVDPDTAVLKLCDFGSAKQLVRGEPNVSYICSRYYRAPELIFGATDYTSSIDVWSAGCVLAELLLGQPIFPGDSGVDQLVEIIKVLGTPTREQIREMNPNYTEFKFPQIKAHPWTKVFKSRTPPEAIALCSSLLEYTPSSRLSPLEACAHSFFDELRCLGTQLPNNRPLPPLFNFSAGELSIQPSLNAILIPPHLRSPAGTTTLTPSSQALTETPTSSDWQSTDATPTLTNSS

# Block 1 — read-out: enzyme activity; action: inhibitor; concentration: 0.5 µM; reference: control
# Target: Tyrosine-protein kinase ITK/TSK (ITK, Homo sapiens, UniProt Q08881)
# Sequence of UniProt Q08881 (whole entry, looked up): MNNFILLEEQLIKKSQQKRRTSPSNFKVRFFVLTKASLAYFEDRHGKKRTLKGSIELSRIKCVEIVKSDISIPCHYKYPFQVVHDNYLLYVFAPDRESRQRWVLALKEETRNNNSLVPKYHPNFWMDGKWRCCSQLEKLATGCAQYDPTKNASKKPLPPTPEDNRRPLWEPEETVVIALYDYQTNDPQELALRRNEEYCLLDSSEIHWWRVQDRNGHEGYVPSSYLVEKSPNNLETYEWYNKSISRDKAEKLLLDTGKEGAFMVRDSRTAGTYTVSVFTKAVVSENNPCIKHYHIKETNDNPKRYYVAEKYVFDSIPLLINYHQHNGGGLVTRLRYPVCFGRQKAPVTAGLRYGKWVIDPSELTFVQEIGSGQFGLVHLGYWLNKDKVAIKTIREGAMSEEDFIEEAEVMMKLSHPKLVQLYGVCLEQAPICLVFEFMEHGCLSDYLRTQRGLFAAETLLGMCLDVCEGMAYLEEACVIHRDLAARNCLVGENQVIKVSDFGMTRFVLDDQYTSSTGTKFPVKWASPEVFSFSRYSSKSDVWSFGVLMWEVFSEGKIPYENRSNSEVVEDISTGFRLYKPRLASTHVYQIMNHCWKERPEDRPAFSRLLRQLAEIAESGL
SMILES,remaining activity [%]
Nc1ncnc2c1cnn2-c1ccccc1,92.7
COc1ccc(S(=O)(=O)N(CCO)c2ccccc2CN(C)CC=Cc2ccc(Cl)cc2)cc1,97.1
O=C1Cc2c([nH]c3ccc([N+](=O)[O-])cc23)-c2ccccc2N1,97.1
COc1cc(Nc2c(C#N)cnc3cc(OCCCN4CCN(C)CC4)c(OC)cc23)c(Cl)cc1Cl,103
CCCC(=O)Oc1ccc2[nH]c(C(=O)c3cc4ccccc4[nH]3)cc2c1,82
CC(C)(C)n1nc(Cc2cccc3ccccc23)c2c(N)ncnc21,86.5
N#CC(=C(N)Sc1ccc(N)cc1)c1ccccc1C(F)(F)F,97.4
Nc1nc(Nc2ccc(S(N)(=O)=O)cc2)nn1C(=O)c1c(F)cccc1F,105
Nc1nccc(-c2c(-c3ccc(F)cc3)ncn2C2CCNCC2)n1,90.5
CSc1nc(-c2ccnc(N[C@@H](C)c3ccccc3)c2)c(-c2ccc(F)cc2)[nH]1 (racemic),91.6
CC[n+]1c(/C=C/N(C)c2ccccc2)n(-c2ccccc2)c2ccc(-c3nc4ccccc4s3)cc21,92.7
Cc1cncc2cccc(S(=O)(=O)N3CCCN(C(=O)CN)C[C@@H]3C)c12,97.2
CC(=O)c1ccc(N2CCOCC2)cc1O,97
Cc1cc(Nc2nc(-c3ccccc3)nc3ccccc23)n[nH]1,45.4
O=C1NC(=O)C(c2c[nH]c3ccccc23)=C1c1c[nH]c2ccccc12,102
Oc1ccc(Nc2nc(-c3ccc(Cl)cc3)cs2)cc1,95.4
NC(=O)c1ccc(N(C(N)=O)c2c(F)cccc2F)nc1-c1ccc(F)cc1F,105
Cc1ccc(NC2=CC(=O)c3sc(C)nc3C2=O)cc1,98.6
O=S(=O)(NCCNC/C=C/c1ccc(Br)cc1)c1cccc2cnccc12,86.8
CCc1[nH]c(-c2ccc(OC)cc2)nc1-c1ccncc1,97.4
CC#CC(=O)Nc1cc2c(Nc3ccc(F)c(Cl)c3)ncnc2cn1,76.3
Fc1ccc(-c2nc3n(c2-c2ccncc2)CCS3)cc1,97.5

# Block 2 — method: competition with immobilised ligand; concentration: 1 µM
# Structure (SMILES): CC(=O)N1CCC(c2ccc(C(=O)NC(=N)N)cc2C(F)(F)F)CC1
target,test,remaining binding [%]
"FLT3 (Homo sapiens, UniProt P36888, N841I)",cell-free assay,100
"IGF1R (Homo sapiens, UniProt P08069)",cell-free assay,100
"MAK (Homo sapiens, UniProt P20794)",binding,79
"TYRO3 (Homo sapiens, UniProt Q06418)",cell-free assay,100
"RET (Homo sapiens, UniProt P07949, V804M)",cell-free assay,100
"PI4KB (Homo sapiens, UniProt Q9UBF8)",cell-free assay,100
"GSK3A (Homo sapiens, UniProt P49840)",cell-free assay,97
"STK38L (Homo sapiens, UniProt Q9Y2H1)",binding,99
"CDC42BPA (Homo sapiens, UniProt Q5VT25)",cell-free assay,100
"STK17B (Homo sapiens, UniProt O94768)",cell-free assay,100
"MATK (Homo sapiens, UniProt P42679)",cell-free assay,100
"ANKK1 (Homo sapiens, UniProt Q8NFD2)",cell-free assay,100
"ALK (Homo sapiens, UniProt Q9UM73)",cell-free assay,93
"BRAF (Homo sapiens, UniProt P15056)",cell-free assay,100
"MAP3K7 (Homo sapiens, UniProt O43318)",cell-free assay,100
"BRAF (Homo sapiens, UniProt P15056, V600E)",cell-free assay,100

# Block 3 — cell line: mouse MPNST tumor cells; method: high-content immunofluorescence imaging; measured: nuclear SOX9; concentration: 10 µM; time: 12 h; notes: mean of 2 replicates; reference: DMSO control; direction: higher = more nuclear SOX9
Structure (SMILES),nuclear SOX9 intensity
O=C(O)CCCCN(CCc1ccccc1OCc1ccc(CCc2ccccc2)cc1)Cc1ccc(C(=O)O)cc1,99.3 % of DMSO
COc1ccc(-c2cc(=S)ss2)cc1,96.9 % of DMSO
Cc1onc(-c2ccccc2)c1C(=O)N[C@@H]1C(=O)N2[C@@H]1SC(C)(C)[C@@H]2C(=O)O,97.6 % of DMSO
O=C(O)c1ccc(S(=O)(=O)N(Cc2ccc(OC(F)(F)F)cc2)c2ncc(C(F)(F)F)cc2Cl)cc1,83 % of DMSO
CCC(C)C1OC2(CCC1C)CC1CC(CC=C(C)C(OC3CC(OC)C(OC4CC(OC)C(O)C(C)O4)C(C)O3)C(C)C=CC=C3COC4C(O)C(C)=CC(C(=O)O1)C34O)O2 (centres unmarked),121 % of DMSO
COCCN1CCC(C(=O)NO)(S(=O)(=O)c2ccc(Oc3ccc(OC(F)(F)F)cc3)cc2)CC1,97.4 % of DMSO
CCNC(=O)[C@H]1O[C@@H](n2cnc3c(N)nc(NCCc4ccc(CCC(=O)O)cc4)nc32)[C@H](O)[C@@H]1O,100 % of DMSO
CC(CN(C)C)CN1c2ccccc2Sc2ccccc21 (centres unmarked),204 % of DMSO
COc1ccc(C[C@H](NC(C)=O)C(=O)N[C@H]2[C@@H](O)[C@H](n3cnc4c(N(C)C)ncnc43)O[C@@H]2CO)cc1,95.7 % of DMSO
COc1ccc(Cl)cc1C(=O)NCCc1ccc(S(=O)(=O)NC(=O)NC2CCCCC2)cc1,123 % of DMSO and 105 % of DMSO
O=Nc1c(O)[nH]c2c(Cl)c(Cl)ccc12,96.4 % of DMSO
COc1ccc2cccc(N3CCN(CCNC(=O)c4ccc(F)cc4)CC3)c2c1,207 % of DMSO
CC1=C(/C=C/C(C)=C/C=C/C(C)=C/C(=O)O)C(C)(C)CCC1,106 % of DMSO
CCN(CC)C(=S)S,90.3 % of DMSO

# Block 4 — organism: Plasmodium berghei; action: inhibitor; cell line: Huh-7; strain: GFP-expressing sporozoites, liver stage; concentration: 10 µM; time: 24 h; reference: untreated control
SMILES,infection rate [%]
CCC(=O)OCC(=O)[C@@]1(OC(=O)CC)[C@@H](C)C[C@H]2[C@@H]3CCC4=CC(=O)C=C[C@]4(C)[C@@]3(Cl)[C@@H](O)C[C@@]21C,93.7
COc1ccccc1OCCNCC(O)COc1cccc2[nH]c3ccccc3c12 (centres unmarked),101
C[C@@H]1[C@H](O)[C@@H](C)/C=C/C=C/C=C/C=C/C=C/C=C/C=C/[C@H](O[C@@H]2O[C@H](C)[C@@H](O)[C@H](N)[C@@H]2O)C[C@@H]2O[C@](O)(C[C@@H](O)C[C@@H](O)[C@H](O)CC[C@@H](O)C[C@@H](O)CC(=O)O[C@H]1C)C[C@H](O)[C@H]2C(=O)O,95.2
N[C@@H](C(=O)N[C@@H]1C(=O)N2C(C(=O)O)=C(Cl)CS[C@H]12)c1ccccc1,110
CCOC(=O)OC(C)OC(=O)[C@@H]1N2C(=O)[C@@H](NC(=O)[C@H](N)c3ccccc3)[C@H]2SC1(C)C (some centres unmarked),84.8
C#C[C@]1(O)CC[C@H]2[C@@H]3CCC4=Cc5oncc5C[C@]4(C)[C@H]3CC[C@@]21C,102
CC(=O)OCC(=O)[C@@]1(O)[C@@H](C)C[C@H]2[C@@H]3CCC4=CC(=O)C=C[C@]4(C)[C@@]3(F)[C@@H](O)C[C@@]21C,96.4
COc1ccc(C(=O)CC(=O)c2ccc(C(C)(C)C)cc2)cc1,89.7
CN(C)CCCC1(c2ccc(F)cc2)OCc2cc(C#N)ccc21 (centres unmarked),104
CN(C)CCOc1ccc(/C(=C(/CCCl)c2ccccc2)c2ccccc2)cc1,2.88
C[N+](C)(C)CCOC(N)=O,104
O=C1c2cccc(O)c2C(=O)c2c(O)cccc21,104
CN1CCCC(n2nc(Cc3ccc(Cl)cc3)c3ccccc3c2=O)CC1 (centres unmarked),105
C[C@H]1C[C@H]2[C@@H]3CCC4=CC(=O)C=C[C@]4(C)[C@@]3(F)[C@@H](O)C[C@]2(C)[C@@]1(O)C(=O)CO,104
O=C(N[C@H](CO)[C@H](O)c1ccc([N+](=O)[O-])cc1)C(Cl)Cl,72.3
Cc1onc(-c2ccccc2Cl)c1C(=O)N[C@@H]1C(=O)N2[C@@H]1SC(C)(C)[C@@H]2C(=O)O,108

# A few entries again (block 1):
SMILES,remaining activity [%]
Nc1ncnc2c1cnn2-c1ccccc1,92.7
COc1ccc(S(=O)(=O)N(CCO)c2ccccc2CN(C)CC=Cc2ccc(Cl)cc2)cc1,97.1
O=C1Cc2c([nH]c3ccc([N+](=O)[O-])cc23)-c2ccccc2N1,97.1
COc1cc(Nc2c(C#N)cnc3cc(OCCCN4CCN(C)CC4)c(OC)cc23)c(Cl)cc1Cl,103
CCCC(=O)Oc1ccc2[nH]c(C(=O)c3cc4ccccc4[nH]3)cc2c1,82
CC(C)(C)n1nc(Cc2cccc3ccccc23)c2c(N)ncnc21,86.5
N#CC(=C(N)Sc1ccc(N)cc1)c1ccccc1C(F)(F)F,97.4
Nc1nc(Nc2ccc(S(N)(=O)=O)cc2)nn1C(=O)c1c(F)cccc1F,105
Nc1nccc(-c2c(-c3ccc(F)cc3)ncn2C2CCNCC2)n1,90.5
CSc1nc(-c2ccnc(N[C@@H](C)c3ccccc3)c2)c(-c2ccc(F)cc2)[nH]1 (racemic),91.6
